Published values pooled from the literature.
Compare with care: the assays were run in different laboratories. Numbers after ± are the reported error.
Target: Histone deacetylase 8 (HDAC8, Homo sapiens, UniProt Q9BY41)
Sequence (Q9BY41 1-377, as in one of the studies): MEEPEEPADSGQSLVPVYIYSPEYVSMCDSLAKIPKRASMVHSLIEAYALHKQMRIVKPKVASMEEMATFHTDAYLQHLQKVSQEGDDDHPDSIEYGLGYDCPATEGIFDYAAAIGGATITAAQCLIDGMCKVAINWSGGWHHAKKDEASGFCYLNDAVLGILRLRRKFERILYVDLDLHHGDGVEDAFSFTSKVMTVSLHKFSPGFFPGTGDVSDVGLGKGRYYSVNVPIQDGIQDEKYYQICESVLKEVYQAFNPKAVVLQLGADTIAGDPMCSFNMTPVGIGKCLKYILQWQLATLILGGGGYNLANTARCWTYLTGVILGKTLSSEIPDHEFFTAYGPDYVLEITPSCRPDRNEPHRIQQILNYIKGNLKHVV

Compound = CN1CCN(C(=O)N(CCCCCCC(=O)NO)c2ccc(-c3ccc4cnn(C)c4c3)cc2)CC1; read-out = enzyme activity; action = inhibitor; technique = fluorescence; IC50 = 49.8 nM
Compound = O=c1[nH]sc2ccccc12; read-out = enzyme activity; action = inhibitor; IC50 = > 10000 nM
Compound = Cc1cc(CN(CCCCCCC(=O)NO)Cc2ccc(F)c(C)c2)ccc1F; read-out = enzyme activity; action = inhibitor; technique = fluorescence; IC50 = 9800 nM
Compound = O=c1c2ccccc2sn1-c1ccccc1; read-out = enzyme activity; action = inhibitor; IC50 = 190 nM
Compound = O=C(CCCCCCNCc1ccc([N+](=O)[O-])cc1)NO; read-out = enzyme activity; action = inhibitor; technique = fluorescence; IC50 = 2100 nM
Compound = COCc1cc2c(cn1)CN(C(=O)Nc1nc(-c3ccc(F)cc3)ccc1N)C2; read-out = deacetylase activity; action = inhibitor; technique = recombinant enzyme; IC50 = > 30000 nM
Compound = CCCc1nc2ccccn2c1Nc1ccc(C(=O)NO)cc1; IC50 = 1580 ± 210 nM
Compound = O=c1c2ccccc2on1-c1ccccc1; read-out = enzyme activity; action = inhibitor; IC50 = > 10000 nM
Compound = O=C(CCCCCCNCc1ccc(-c2ccccc2)s1)NO; read-out = enzyme activity; action = inhibitor; technique = fluorescence; IC50 = 550 nM
Compound = O=C(CCCCCCNC(=O)c1cc(C(=O)c2ccccc2)cn1Cc1ccc(F)cc1)NO; read-out = enzyme activity; action = inhibitor; IC50 = 920 nM
Compound = O=C(/C=C/c1ccc(Cl)cc1Cl)NO; read-out = enzyme activity; action = inhibitor; IC50 = 705 nM
Compound = Cc1ncc2c(n1)CN(C(=O)Nc1nc(-c3cccs3)ccc1N)C2; read-out = deacetylase activity; action = inhibitor; technique = recombinant enzyme; IC50 = > 30000 nM

Repeated from above:
Compound = O=C(CCCCCCNCc1ccc(-c2ccccc2)s1)NO; read-out = enzyme activity; action = inhibitor; technique = fluorescence; IC50 = 550 nM
